Experimental data pooled from the literature.
Numbered parts are unrelated; each lists some results of a single study.
UniProt Q05940, sequence (whole entry, looked up): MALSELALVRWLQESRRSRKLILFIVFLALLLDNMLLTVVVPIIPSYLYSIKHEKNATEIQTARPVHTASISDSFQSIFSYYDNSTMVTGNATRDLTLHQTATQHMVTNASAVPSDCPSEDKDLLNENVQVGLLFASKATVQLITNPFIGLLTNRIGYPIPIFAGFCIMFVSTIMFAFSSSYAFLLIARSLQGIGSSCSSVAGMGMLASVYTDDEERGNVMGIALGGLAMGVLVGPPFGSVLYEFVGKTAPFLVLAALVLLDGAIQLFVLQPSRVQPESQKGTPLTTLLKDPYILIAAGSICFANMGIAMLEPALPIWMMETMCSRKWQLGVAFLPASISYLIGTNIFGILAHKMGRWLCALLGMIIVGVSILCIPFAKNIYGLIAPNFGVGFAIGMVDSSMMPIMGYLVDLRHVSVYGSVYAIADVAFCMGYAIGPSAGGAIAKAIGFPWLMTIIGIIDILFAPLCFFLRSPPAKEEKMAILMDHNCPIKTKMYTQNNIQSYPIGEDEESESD
UniProt P41743, sequence (whole entry, looked up): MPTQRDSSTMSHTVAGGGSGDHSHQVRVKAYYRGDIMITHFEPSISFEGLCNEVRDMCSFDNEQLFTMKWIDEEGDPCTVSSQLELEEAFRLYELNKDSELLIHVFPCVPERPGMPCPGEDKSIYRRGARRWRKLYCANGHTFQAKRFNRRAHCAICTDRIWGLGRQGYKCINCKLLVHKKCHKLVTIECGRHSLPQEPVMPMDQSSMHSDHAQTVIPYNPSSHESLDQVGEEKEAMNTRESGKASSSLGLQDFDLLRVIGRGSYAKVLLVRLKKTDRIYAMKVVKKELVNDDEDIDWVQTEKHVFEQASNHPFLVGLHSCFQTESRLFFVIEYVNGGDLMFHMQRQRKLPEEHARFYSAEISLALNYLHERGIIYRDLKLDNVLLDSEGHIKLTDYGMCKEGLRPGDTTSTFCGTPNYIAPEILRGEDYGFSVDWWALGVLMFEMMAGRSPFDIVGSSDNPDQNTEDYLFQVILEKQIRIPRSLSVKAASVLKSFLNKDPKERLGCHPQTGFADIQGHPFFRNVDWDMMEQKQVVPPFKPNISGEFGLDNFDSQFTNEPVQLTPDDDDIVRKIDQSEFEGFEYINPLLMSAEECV
UniProt Q9NWZ3, sequence (whole entry, looked up): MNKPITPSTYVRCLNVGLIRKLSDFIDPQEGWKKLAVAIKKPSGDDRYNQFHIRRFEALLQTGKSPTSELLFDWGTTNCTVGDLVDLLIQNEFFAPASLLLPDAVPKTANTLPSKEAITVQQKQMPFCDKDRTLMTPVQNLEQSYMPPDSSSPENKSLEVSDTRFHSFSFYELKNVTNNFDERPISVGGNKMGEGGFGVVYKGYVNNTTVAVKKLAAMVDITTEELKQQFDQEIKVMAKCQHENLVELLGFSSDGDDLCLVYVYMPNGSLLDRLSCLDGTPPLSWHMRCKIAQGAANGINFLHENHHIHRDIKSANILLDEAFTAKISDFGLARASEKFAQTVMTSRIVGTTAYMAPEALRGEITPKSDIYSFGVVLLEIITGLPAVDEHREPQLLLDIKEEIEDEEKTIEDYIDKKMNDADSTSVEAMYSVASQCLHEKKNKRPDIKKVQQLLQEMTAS
UniProt Q5S007, sequence (whole entry, looked up): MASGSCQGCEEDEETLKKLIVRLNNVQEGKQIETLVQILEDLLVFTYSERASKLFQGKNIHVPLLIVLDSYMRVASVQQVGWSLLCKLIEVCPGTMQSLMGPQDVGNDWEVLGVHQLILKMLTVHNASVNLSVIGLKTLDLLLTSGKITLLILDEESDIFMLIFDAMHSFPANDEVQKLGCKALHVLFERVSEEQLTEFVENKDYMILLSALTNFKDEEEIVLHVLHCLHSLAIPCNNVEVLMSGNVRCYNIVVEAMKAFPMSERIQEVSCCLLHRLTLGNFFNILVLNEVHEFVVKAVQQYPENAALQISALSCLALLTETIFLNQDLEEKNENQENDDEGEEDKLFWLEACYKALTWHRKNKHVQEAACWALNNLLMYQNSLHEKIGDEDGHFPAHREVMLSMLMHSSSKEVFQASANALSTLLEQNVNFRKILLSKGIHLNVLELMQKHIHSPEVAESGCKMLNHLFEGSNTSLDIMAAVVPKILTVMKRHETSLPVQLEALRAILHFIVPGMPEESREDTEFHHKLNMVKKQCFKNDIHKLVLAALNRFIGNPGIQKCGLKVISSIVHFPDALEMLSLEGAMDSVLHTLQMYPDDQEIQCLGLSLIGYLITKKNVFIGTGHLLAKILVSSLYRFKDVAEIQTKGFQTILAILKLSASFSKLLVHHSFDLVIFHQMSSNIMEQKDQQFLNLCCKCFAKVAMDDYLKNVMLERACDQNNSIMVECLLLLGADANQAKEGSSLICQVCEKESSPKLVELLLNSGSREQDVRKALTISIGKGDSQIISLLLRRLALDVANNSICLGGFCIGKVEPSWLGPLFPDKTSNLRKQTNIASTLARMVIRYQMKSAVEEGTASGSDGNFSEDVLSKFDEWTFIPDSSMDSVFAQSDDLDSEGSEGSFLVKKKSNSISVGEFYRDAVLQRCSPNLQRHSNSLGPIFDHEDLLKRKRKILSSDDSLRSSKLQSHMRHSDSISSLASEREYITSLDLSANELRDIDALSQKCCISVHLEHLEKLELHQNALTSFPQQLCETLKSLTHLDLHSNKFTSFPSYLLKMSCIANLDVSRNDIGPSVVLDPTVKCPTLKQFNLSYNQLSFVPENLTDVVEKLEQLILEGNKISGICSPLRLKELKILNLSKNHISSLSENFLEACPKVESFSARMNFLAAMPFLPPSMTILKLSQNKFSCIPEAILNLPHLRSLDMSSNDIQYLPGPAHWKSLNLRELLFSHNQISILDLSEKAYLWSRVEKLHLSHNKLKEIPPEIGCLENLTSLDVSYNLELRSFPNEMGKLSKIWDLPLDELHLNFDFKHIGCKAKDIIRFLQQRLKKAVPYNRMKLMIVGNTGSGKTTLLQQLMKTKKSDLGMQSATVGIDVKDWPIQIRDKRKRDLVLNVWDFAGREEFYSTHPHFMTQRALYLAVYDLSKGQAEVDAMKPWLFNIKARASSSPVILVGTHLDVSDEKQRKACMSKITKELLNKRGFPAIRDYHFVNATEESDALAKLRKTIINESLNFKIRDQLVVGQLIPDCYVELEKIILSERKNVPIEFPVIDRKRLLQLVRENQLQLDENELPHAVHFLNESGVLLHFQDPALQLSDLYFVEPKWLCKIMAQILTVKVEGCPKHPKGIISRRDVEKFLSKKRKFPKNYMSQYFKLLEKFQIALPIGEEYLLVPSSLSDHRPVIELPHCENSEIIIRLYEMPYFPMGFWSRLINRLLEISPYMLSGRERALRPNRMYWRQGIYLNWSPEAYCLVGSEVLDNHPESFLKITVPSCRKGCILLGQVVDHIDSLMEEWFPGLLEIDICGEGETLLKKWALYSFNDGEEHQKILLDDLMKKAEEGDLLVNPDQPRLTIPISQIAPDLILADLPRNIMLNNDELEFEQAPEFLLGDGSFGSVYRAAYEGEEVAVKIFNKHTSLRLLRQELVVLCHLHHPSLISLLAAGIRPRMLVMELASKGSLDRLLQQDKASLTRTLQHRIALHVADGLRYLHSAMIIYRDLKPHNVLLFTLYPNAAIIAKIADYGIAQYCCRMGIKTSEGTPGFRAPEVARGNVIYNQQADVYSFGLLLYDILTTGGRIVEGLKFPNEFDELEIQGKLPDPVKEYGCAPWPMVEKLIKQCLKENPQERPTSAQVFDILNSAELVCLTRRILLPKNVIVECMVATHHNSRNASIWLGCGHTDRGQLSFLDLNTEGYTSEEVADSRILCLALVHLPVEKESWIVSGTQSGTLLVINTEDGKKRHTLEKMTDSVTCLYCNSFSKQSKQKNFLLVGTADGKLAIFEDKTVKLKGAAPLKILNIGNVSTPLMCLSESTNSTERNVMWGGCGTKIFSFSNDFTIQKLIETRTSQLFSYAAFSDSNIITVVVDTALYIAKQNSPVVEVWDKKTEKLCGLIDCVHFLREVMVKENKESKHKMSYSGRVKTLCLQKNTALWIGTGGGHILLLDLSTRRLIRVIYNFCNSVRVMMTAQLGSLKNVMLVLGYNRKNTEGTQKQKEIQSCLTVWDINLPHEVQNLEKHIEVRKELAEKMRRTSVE
UniProt Q9HBH9, sequence (whole entry, looked up): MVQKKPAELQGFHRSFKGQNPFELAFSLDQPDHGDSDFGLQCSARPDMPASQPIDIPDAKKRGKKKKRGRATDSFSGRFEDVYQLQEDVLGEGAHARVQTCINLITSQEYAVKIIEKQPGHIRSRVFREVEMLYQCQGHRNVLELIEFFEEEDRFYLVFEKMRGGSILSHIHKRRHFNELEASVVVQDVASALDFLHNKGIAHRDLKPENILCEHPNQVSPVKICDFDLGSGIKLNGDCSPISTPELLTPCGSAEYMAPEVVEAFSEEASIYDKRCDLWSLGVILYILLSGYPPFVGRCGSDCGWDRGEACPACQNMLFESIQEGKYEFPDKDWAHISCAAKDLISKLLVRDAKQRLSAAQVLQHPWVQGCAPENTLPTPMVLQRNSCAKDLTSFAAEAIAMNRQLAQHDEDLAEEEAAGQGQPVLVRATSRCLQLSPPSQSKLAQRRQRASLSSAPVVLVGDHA
UniProt P11229, sequence (whole entry, looked up): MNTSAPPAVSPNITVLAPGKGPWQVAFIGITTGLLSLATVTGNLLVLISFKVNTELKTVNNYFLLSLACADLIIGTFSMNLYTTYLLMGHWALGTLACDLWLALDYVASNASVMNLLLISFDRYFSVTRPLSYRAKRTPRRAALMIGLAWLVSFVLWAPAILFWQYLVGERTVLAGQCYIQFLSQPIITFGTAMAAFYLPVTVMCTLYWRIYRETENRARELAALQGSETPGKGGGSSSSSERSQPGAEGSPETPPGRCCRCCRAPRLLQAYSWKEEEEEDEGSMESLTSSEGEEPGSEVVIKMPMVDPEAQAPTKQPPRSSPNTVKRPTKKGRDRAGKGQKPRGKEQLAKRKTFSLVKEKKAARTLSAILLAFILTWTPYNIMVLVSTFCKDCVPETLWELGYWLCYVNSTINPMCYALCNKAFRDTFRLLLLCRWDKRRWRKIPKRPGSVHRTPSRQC

Series 1
SMILES: O=C1NC(=O)c2c1c1c3ccccc3n3c1c1c2c2ccccc2n1[C@H]1CC[C@@H]3O1
Observed: enzyme activity
Action: inhibitor
Tested at: 0.5 µM
Reference: control
target	remaining activity [%]
AKT3 (Homo sapiens, UniProt Q9Y243)	27.1
MAP4K2 (Homo sapiens, UniProt Q12851)	3.75
PRKCI (Homo sapiens, UniProt P41743)	86.4
IRAK4 (Homo sapiens, UniProt Q9NWZ3)	14
KIT (Homo sapiens, UniProt P10721)	60.8
MKNK2 (Homo sapiens, UniProt Q9HBH9)	9.71
LRRK2 (Homo sapiens, UniProt Q5S007)	1.91

Series 2
Organism: Sarcocystis neurona
Observed: parasite growth
Tested at: 10 µM
Time: 96 h
Notes: first screen
SMILES	inhibition [%]
C=CCN1CC[C@]23c4c5ccc(O)c4O[C@H]2C(=O)CC[C@@]3(O)[C@H]1C5	-12.3
CC(O)(CS(=O)(=O)c1ccc(F)cc1)C(=O)Nc1ccc(C#N)c(C(F)(F)F)c1 (stereo not drawn)	-4.6
C[C@]12CC[C@H](O)CC1=CC[C@@H]1[C@@H]2CC[C@]2(C)C(=O)CC[C@@H]12	0.8
CC(C)CC(N(C)C)C1(c2ccc(Cl)cc2)CCC1 (stereo not drawn)	0.134
CC[C@@H](C(N)=O)N1CCCC1=O	-5.3
NC(=NCc1ccc(Cl)cc1)SCCCc1cnc[nH]1	20.8

Further values, each from its own experiment
SMILES	target	test	conditions	measurement	result
CN(C)C(=O)C(CCN1CCC(O)(c2ccc(Cl)cc2)CC1)(c1ccccc1)c1ccccc1	SLC18A2 (Homo sapiens, UniProt Q05940)	transporter inhibition, inhibitor	–	IC50	0.158 µM
COc1ccc2c(c1)O[C@H](c1ccc(OC)c(OC)c1)C[C@@H]2NC(=O)C1(c2ccc3c(c2)OC(F)(F)O3)CC1	CHRM1 (Homo sapiens, UniProt P11229)	cell-free assay	10 µM	inhibition	-12.4%
